Results of several laboratories.
Parts stem from different laboratories: compare values within a part only. Values joined by “and” are separate records of one study, mostly repeats; a detail may differ. ± marks the error that the study gave.

Block 1
Organism: Arabidopsis thaliana
Strain: Col-0
Concentration: 50 µg/mL
Setting: seed germination, single repetition
SMILES | hypocotyl length
CCN1C(=O)C(O)(C(=O)O)Oc2cc(F)ccc21 (stereo not shown) | 1.61 cm and 1.63 cm and 1.62 cm and 1.65 cm
O=C(O)C1(O)Oc2cc(Cl)ccc2N(Cc2ccccc2)C1=O (stereo not shown) | 1.32 cm and 1.33 cm and 1.31 cm
Cc1ccc2c(c1)OC(O)(C(=O)O)C(=O)N2Cc1ccccc1 (stereo not shown) | 1.64 cm and 1.65 cm and 1.62 cm and 1.67 cm and 1.61 cm
CCCN1C(=O)C(O)(C(=O)O)Oc2cc(F)ccc21 (stereo not shown) | 1.28 cm and 1.25 cm and 1.3 cm and 1.27 cm and 1.24 cm

Block 2
Compound: C[C@@H]1CN(c2ccc(-c3cc(C(=O)NCCOCCOCCOCCOCCOCCOCCNC(=O)/C=C/c4[nH]cc(C(=O)N[C@@H](CC(N)=O)c5ccc(F)c(Cl)c5)c4-c4ccc(Cl)cc4F)ccc3F)cc2NC(=O)c2ccc(F)cc2C(F)(F)F)C[C@H](C)N1C
Observed: thermal unfolding
Technique: differential scanning fluorimetry
Concentration: 5.5 µM
Reading: higher = more unfolded
DCAF1: DDB1- and CUL4-associated factor 1 (DCAF1, Homo sapiens, UniProt Q9Y4B6)
Chain of UniProt Q9Y4B6 (whole entry, looked up): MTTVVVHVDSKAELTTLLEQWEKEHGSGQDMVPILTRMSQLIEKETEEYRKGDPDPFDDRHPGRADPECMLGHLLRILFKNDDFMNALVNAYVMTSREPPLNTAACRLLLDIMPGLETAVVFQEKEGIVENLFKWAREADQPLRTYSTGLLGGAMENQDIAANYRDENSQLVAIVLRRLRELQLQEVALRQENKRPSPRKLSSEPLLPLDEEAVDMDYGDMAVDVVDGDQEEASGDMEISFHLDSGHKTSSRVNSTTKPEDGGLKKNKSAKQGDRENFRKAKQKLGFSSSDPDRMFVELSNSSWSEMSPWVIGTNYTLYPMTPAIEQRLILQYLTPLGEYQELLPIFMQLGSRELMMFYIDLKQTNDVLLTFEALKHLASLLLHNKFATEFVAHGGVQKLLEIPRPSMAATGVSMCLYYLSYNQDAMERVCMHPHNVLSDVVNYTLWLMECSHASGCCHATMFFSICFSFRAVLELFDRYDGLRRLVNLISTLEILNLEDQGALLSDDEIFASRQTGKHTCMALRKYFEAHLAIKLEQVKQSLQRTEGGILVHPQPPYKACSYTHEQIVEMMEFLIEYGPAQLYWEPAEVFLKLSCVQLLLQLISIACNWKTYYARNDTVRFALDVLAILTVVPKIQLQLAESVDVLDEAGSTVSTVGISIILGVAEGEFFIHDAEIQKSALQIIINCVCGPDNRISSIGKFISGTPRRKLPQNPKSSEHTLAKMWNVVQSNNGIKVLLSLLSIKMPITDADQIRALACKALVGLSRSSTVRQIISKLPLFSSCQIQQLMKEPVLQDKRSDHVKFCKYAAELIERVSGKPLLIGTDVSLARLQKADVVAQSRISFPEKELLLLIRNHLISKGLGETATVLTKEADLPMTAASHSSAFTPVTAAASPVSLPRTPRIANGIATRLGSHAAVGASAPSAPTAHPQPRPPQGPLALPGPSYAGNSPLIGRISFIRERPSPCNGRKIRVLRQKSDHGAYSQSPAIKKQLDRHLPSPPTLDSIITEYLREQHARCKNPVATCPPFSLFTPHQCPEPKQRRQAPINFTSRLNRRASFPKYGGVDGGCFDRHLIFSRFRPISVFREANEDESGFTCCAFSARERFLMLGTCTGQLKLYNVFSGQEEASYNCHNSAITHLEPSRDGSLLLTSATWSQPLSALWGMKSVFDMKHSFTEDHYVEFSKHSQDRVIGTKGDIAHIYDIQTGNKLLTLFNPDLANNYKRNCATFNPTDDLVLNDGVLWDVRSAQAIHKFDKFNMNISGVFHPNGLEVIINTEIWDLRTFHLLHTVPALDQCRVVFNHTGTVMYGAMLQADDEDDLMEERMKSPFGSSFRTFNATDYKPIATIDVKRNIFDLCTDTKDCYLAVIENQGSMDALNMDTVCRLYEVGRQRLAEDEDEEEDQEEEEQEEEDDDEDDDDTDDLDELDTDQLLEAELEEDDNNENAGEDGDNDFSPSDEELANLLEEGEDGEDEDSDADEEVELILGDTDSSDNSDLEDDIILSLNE
WDR5: WD repeat-containing protein 5 (WDR5, Homo sapiens, UniProt P61964)
target | setting | SYPRO Orange fluorescence
DCAF1 | 58.01 °C | 38600 a.u.
DCAF1 | 63.01 °C | 53900 a.u.
DCAF1 | 62.41 °C | 53300 a.u.
DCAF1 | 84.21 °C | 36700 a.u.
DCAF1 | 33 °C | 9270 a.u.
WDR5 | 66.61 °C | 18400 a.u.
DCAF1 | 76.61 °C | 42400 a.u.
WDR5 | 86.21 °C | 60400 a.u.

Block 3
SMILES: Cc1ccc(O)c(C)c1-c1cnc2[nH]c(-c3cnc(N4CCC5(CC4)CC(N4CCN(c6ccc(N[C@H]7CCC(=O)NC7=O)cc6F)CC4)CO5)nc3)cc2c1C#N (single isomer, unassigned)
Target: Membrane-associated tyrosine- and threonine-specific cdc2-inhibitory kinase (PKMYT1, Homo sapiens, UniProt Q99640)
Action: degrader
Residues (Q99640 1-499): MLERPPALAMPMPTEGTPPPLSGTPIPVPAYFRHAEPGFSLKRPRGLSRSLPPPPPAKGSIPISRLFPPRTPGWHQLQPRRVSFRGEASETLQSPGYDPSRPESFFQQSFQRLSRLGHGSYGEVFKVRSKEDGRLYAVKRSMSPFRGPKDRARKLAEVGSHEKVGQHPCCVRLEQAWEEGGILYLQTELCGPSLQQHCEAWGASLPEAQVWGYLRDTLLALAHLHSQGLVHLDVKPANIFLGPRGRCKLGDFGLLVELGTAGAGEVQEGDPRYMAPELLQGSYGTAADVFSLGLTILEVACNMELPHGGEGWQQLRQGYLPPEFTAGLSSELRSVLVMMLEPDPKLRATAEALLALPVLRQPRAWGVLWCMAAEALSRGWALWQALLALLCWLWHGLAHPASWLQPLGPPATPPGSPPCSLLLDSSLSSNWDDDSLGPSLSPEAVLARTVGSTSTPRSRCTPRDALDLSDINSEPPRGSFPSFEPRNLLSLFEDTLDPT
assay | system | setting | degradation
automated immunoblot (Jess) |  | 0.15 nM, 24 h | 13.8% and 15.3%
automated immunoblot (Jess) |  | 0.46 nM, 24 h | 40.2% and 39.2%
automated immunoblot (Jess) | HCC1569 | 0.05 nM, 24 h | 5.66%
automated immunoblot (Jess) | HCC1569 | 333.33 nM, 24 h | 89.4%
automated immunoblot | HCC1569 | 100 nM | 85.9% and 85% and 84.6%
automated immunoblot (Jess) |  | 1.37 nM, 24 h | 68.8% and 65.7%

Mixed results
Target: Sodium-dependent neutral amino acid transporter B(0)AT1 (SLC6A19, Homo sapiens, UniProt Q695T7)
Chain of UniProt Q695T7 (whole entry, looked up): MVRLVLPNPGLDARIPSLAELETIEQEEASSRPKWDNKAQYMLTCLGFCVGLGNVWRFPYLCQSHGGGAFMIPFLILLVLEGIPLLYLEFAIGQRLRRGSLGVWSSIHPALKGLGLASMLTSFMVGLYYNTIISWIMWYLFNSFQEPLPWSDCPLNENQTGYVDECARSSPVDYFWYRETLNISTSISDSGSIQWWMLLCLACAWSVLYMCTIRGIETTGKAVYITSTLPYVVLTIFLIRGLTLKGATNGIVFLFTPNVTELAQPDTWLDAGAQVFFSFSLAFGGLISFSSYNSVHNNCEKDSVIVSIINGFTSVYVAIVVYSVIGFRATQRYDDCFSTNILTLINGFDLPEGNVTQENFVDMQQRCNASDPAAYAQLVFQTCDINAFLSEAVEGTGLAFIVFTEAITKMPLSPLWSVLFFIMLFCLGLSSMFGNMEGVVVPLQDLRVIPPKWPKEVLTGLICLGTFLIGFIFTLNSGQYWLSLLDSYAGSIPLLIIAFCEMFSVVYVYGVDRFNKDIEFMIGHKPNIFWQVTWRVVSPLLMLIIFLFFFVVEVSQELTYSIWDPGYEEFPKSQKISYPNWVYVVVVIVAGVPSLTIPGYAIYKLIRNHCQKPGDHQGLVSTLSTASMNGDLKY
Action: inhibitor
Cell line: CHO-BC cells
SMILES | assay | setting | scale | measurement | result
CC(C)NC(=O)COc1ccc2ccccc2c1 | L-[14C]leucine uptake | together with: L-leucine 150 µM |  | IC50 | 2000 ± 400 nM
CCNC(=O)COc1cc(C)c(Cl)c(C)c1 | FLIPR membrane potential | 30 µM, together with: L-leucine 1.5 mM | relative to: cinromide | activity | 3 ± 1%
CNC(=O)COc1cc(C)c(Cl)c(C)c1 | FLIPR membrane potential | 0.1 µM, unit not given | relative to: no inhibitor | remaining transport activity | 1.04
CC(C)NC(=O)COc1ccc(Br)cc1 | L-[14C]leucine uptake | 0.1 µM, 6 min, unit not given, together with: GPNA 3 mM, JPH203 3 µM | relative to: uninhibited cells | remaining transport activity | 1

A few entries again (block 3):
assay | system | setting | degradation
automated immunoblot (Jess) |  | 1.37 nM, 24 h | 68.8% and 65.7%
automated immunoblot | HCC1569 | 100 nM | 85.9% and 85% and 84.6%
